{"data": "Measured values from different studies", "target": "Inhibitor of nuclear factor kappa-B kinase subunit alpha (CHUK, Homo sapiens, UniProt O15111)", "Sequence (O15111 1-745, as in one of the studies)": "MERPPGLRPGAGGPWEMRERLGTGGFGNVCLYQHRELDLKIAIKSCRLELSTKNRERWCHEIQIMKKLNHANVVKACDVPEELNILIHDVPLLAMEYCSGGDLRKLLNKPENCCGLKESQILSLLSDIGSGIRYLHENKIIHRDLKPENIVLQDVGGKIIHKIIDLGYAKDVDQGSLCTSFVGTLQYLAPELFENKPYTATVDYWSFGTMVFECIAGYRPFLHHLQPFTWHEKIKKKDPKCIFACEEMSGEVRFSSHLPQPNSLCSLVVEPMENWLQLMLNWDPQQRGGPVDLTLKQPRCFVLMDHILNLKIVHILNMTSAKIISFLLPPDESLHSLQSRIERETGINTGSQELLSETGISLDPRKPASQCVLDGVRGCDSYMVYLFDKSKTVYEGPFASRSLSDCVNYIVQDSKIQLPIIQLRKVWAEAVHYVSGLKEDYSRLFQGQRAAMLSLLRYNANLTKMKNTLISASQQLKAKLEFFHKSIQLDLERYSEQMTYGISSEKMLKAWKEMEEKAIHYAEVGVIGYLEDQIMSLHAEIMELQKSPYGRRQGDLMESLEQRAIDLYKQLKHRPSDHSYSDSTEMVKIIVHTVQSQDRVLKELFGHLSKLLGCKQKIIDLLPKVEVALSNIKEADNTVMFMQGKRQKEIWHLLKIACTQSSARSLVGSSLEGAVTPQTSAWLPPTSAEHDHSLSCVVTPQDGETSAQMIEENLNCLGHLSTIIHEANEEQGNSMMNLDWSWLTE", "note": "Protocols differ between the studies behind these lines."}
{"SMILES": "CNc1ncc2c(/C=C/C(=O)N3CCC(OC)CC3)nn(Cc3cccc(C(F)(F)F)c3)c2n1", "assay": "kinase activity, inhibitor", "conditions": "1 µM", "how to read": "baseline: untreated control", "measurement": "remaining activity", "result": "95%"}
{"SMILES": "Cc1cc(Nc2cc(N3CCN(C)CC3)nc(Sc3ccc(NC(=O)C4CC4)cc3)n2)[nH]n1", "assay": "kinase activity, KinaseProfiler", "conditions": "0.03 µM, species human", "how to read": "baseline: control", "measurement": "remaining activity", "result": "105%"}
{"SMILES": "CNc1cc(Oc2cc(C(=O)Nc3cc(N4CCN(C)CC4)cc(C(F)(F)F)c3)ccc2C)ncn1", "assay": "kinase activity", "conditions": "1 µM", "measurement": "inhibition", "result": "-10.9%"}
{"SMILES": "CN1CC(Oc2cnc(C#N)cc2-c2ccn3nc(NC(=O)C4CC4)cc3c2)C1", "assay": "inhibitor, KinaseProfiler panel", "conditions": "1 µM", "measurement": "inhibition", "result": "-2%"}
{"SMILES": "C=CC(=O)N1CCC(COCC(=O)N2CCN(c3nc(-c4cnc(N)nc4C(F)F)nc(N4CCOC[C@@H]4C)n3)CC2)CC1", "assay": "KINOMEscan", "conditions": "1 µM", "measurement": "remaining binding", "result": "76%"}
{"SMILES": "COc1cc(F)ccc1-c1ncnc(Nc2cccc(C[S@](C)(=N)=O)c2)n1", "assay": "kinase activity", "conditions": "10 µM, added: 10 µM ATP", "measurement": "remaining activity", "result": "105%"}
{"SMILES": "COc1cc(-c2cncc3c2CN(C)Cc2cc(N4CCNCC4)ccc2-3)cc(OC)c1OC", "assay": "kinase activity", "conditions": "1 µM, human enzyme, added: ATP 10 µM", "how to read": "baseline: DMSO control", "measurement": "remaining activity", "result": "120%"}
{"SMILES": "Cn1cc(-c2cnc3ccc(NC(=O)Nc4ccc(F)c(Br)c4)cc3n2)cn1", "assay": "kinase binding, KiNativ profiling, item: Lys2 peptide", "system": "PANC-1 lysate", "conditions": "7.5 µM", "measurement": "inhibition", "result": "1.3%"}
